Published values from different studies.
Compare with care: the assays were run in different laboratories. Several values in a cell are separate wells, animals, samples, runs or records. ± gives the spread as reported.

| SMILES | test | test system | conditions | scale | measurement | result |
| --- | --- | --- | --- | --- | --- | --- |
| Cc1ncnc2c1ccn2[C@@H]1C[C@H](Oc2cc(C(F)F)c(F)c3c2CNCC3)[C@@H](O)[C@H]1O |  | human | oral, 2 mg twice daily |  | Cmin | 21.6 ng/mL and 7.69 ng/mL |
| CNCCOC12CC3(C)CC(C)(CC(Cn4ncc(-c5ccc(N6CCc7cccc(C(=O)Nc8nc9ccccc9s8)c7C6)nc5C(=O)O)c4C)(C3)C1)C2 |  | beagle dog, male, anaesthetised | intravenous bolus, 0.03 mg/kg, 5 min | relative to: baseline | QRS duration change | 1 ms |
| CCCc1ccc(-c2ccc(-c3cc(F)c(F)c(F)c3)c(F)c2)cc1 |  | rat, placenta | 5000 ng/mL in perfusate, high dose, mixture of 21 LCMs |  | placental accumulation | 338 ± 470 ng/g |
| Cc1ccc(Sc2ccccc2N2CCNCC2)c(C)c1 |  | healthy adult men | oral, 10 mg single, 10 day |  | increased blood creatine phosphokinase | 0% |
| Cc1cc([C@H]2C[C@H]3[C@@H](CF)SC(N)=N[C@@]3(c3ccc(F)cc3F)CO2)on1 |  | 129/SVE wild-type mouse, male | subcutaneous, 100 mg/kg, 3 h |  | CSF concentration | 252 nM |
| Cc1c([C@@H]2COC[C@H](c3ccc(C(F)(F)F)cc3)N2)cnn1-c1ccccc1 | shake-flask, LC-HRMS | aqueous buffer | 16 h, pH 6.8 |  | solubility | < 4 µM |
| C[C@@H](c1ncncc1F)[C@](O)(Cn1cncn1)c1ccc(F)cc1F |  | human | oral, 200 mg, drug interaction trial |  | any TEAE | 9.1% |
| C=CC(=O)Nc1cc(Nc2nccc(-c3cn(C4CC4)c4ccccc34)n2)c(OC)cc1N(C)CCN(C)C |  | BALB/c nude mouse, LU0387 xenograft, blood | oral, 40 mg/kg |  | NRBC percentage | 0.32 ± 0.08% |
| COc1cccc(OC)c1-c1cc(C(=O)NC2(C(=O)O)C3CC4CC(C3)CC2C4)nn1-c1ccc(C(=O)N(C)CCCN(C)CCCN(C)C(=O)CN2CCN(CC(=O)[O-])CCN(CC(=O)[O-])CCN(CC(=O)[O-])CC2)cc1C(C)C.[177Lu+3] (stereo not shown) |  | mouse, HT-29 xenograft | 168 h post injection, biodistribution | relative to: tumour over bone uptake | tumour-to-bone ratio | 4.6 |
| Cn1cnc2ccc(Nc3c(F)ccc(NS(=O)(=O)N4CC(F)C4)c3Cl)c(Cl)c2c1=O | measured: grade 1-2, lipase increased | human patients | dose not given, monotherapy trial | relative to: patients | patients with lipase increased | 3% |
| Cc1ccc([C@@H]2O[C@H](CO)[C@@H](O)[C@H](O)[C@H]2O)cc1Cc1ccc(-c2ccc(F)cc2)s1 | measured: inorganic phosphorus | Japanese type 2 diabetes patients | 25 mg, day 6, 24 h urine collection | relative to: baseline | urinary phosphate excretion change | 13.9 mg |
| CCCCC1=NC2(CCCC2)C(=O)N1Cc1ccc(-c2ccccc2S(=O)(=O)Nc2noc(C)c2C)c(COCC)c1 |  | healthy adult volunteers, plasma | oral, 800 mg, single dose, fed, crushed tablet |  | Tmax | 6.2 h |
| CCO[C@H]1CCN(Cc2c(OC)cc(C)c3[nH]ccc23)[C@H](c2ccc(C(=O)O)cc2)C1 |  | healthy volunteers, plasma | oral, 200 mg single dose, mean |  | total half-life | 20.6 h |
| CCC[C@H]1CC[C@H](c2ccc(C#N)cc2)CC1 |  | Sprague-Dawley rat, female, placenta | 10 ng/mL in perfusate, 50 (unit not given), low dose, mixture of 21 LCMs |  | placental accumulation | 85.1 ± 19 ng/g |
| [18F]c1ccc(-c2ccc3c(c2)[nH]c2ccncc23)cn1 | ex vivo biodistribution | APP/PS1 mouse, AD model, feces | intravenous, 30 min |  | SUV | 0.471 ± 0.105 |
| CNc1cc[n+](CCNC(=O)c2ccn3c(-c4c(C)noc4C)cnc3c2)cc1.[Cl-] |  | 0.1 M HCl | initial, pH 1 |  | total organic impurities | 0 % peak area |
| CCOc1c([C@H](C)n2nc(C)c3c(N)ncnc32)cc(Cl)c(F)c1[C@@H]1CNC(=O)C1 | measured: QTcF above 500 ms | previously treated B-cell malignancy | oral, 30 mg once daily, baseline QTcF ≤450 ms |  | patients | 0% |
| NC1(C(=O)N[C@@H](CCO)c2ccc(Cl)cc2)CCN(c2nc[nH]c3nccc2-3)CC1 |  | metastatic CRPC patients | 400 mg b.i.d., grade 3 to 4, treatment-related, with: enzalutamide 160 mg daily |  | incidence of Dyspepsia | 0% |
| O=c1[nH]c(=O)n([C@@H]2O[C@H](CO)[C@@H](O)[C@@H]2F)cc1CCCCC[18F] |  | nude mice, RG2 tumour, bone | intravenous, dose not given, 2 h |  | biodistribution | 1.57 ± 0.41 %ID/g |
| COc1cc(Nc2ncc3c(n2)-c2ccc(Cl)cc2C(c2c(F)cccc2OC)=NC3)ccc1C(=O)O |  | cancer patients | oral, dose not given, all grades any attribution, with: pembrolizumab |  | patients with abdominal pain | 13% |
| COc1cc2nccc(Oc3ccc(NC(=O)c4cc5c(n(-c6ccccc6)c4=O)CCCC5=O)nc3)c2cc1OC |  | patients with relapsed/refractory AML | oral, 6 mg once daily |  | drug-related TEAEs leading to discontinuation | 0% |
| CCN1CCN(Cc2ccc(NC(=O)c3ccc(C)c(NC(=O)c4cncc(-c5cccs5)c4)c3)cc2C(F)(F)F)CC1 |  | C57BL/6 mice, epithelial lining fluid | intraperitoneal, 30 mg/kg |  | apparent clearance | 51.3 mL/min/kg |
| CCn1c(=O)c(-c2cc(NC(=O)Nc3ccccc3)c(F)cc2Br)cc2cnc(NC)cc21 | measured: nervous system disorders | healthy human, matched to severe hepatic impairment | oral, 50 mg single dose |  | participants with drug-related TEAE | 0% |

| SMILES | test | test system | conditions | scale | measurement | result |
| --- | --- | --- | --- | --- | --- | --- |
| CCC[C@H](C)[C@H]1CN(C(=O)OCC)C[C@@H](c2cccc(Br)c2)N1 | shake-flask, LC-HRMS | aqueous buffer | 16 h, pH 6.8 |  | solubility | < 4 µM |
| C=CC(=O)Nc1cc(Nc2nccc(-c3cn(C)c4ccccc34)n2)c(OC)cc1N(C)CCN(C)C | storage stability | human plasma | 24 h, -80 °C, medium QC level |  | recovery | 103% |
| Clc1ccc([C@H]2COC[C@@H](c3cccc(Br)c3)N2)cc1 | shake-flask, LC-HRMS | aqueous buffer | 16 h, pH 6.8 |  | solubility | < 4 µM |
| FC(F)(F)c1ccc(CNc2ccc(Cc3c[nH]c4ncc(Cl)cc34)cn2)cn1 | measured: hair colour changes | patients with TGCT | oral, 1000 mg/day, all grades |  | patients with treatment-related adverse event | 72% |
| Cc1ccc([C@H]2COC[C@@H](c3cccc(C(F)(F)F)c3)N2)c(O)c1 | shake-flask, LC-HRMS | aqueous buffer | 16 h, pH 6.8 |  | solubility | < 4 µM |
| NC(=O)c1ccc(C(=O)Nc2cc(C3CC3)[nH]n2)cc1 |  | aqueous buffer | pH 7.4 |  | solubility | 8.41 µg/mL |
| O=c1[nH]c(=O)n([C@H]2C[C@H](O)[C@@H](CO)O2)cc1CCCC[18F] |  | male CD-1 nu/nu mice, RG2 tumour, liver | intravenous, dose not given, 2 h |  | biodistribution | 0.45 ± 0.11 %ID/g |
| CCOC(=O)N1C[C@@H](c2ccc(Cl)cc2)N[C@@H](c2ccc(C(F)(F)F)cc2)C1 | shake-flask, LC-HRMS | aqueous buffer | 16 h, pH 6.8 |  | solubility | < 4 µM |
| C=CCN1CC(=O)N2[C@@H](Cc3ccc(O)cc3F)C(=O)N(Cc3cccc(N4CC(N5CCN(CC)CC5)C4)n3)C[C@@H]2N1C(=O)NCc1ccccc1 | measured: Diarrhea | advanced solid tumour patients | all doses, expansion part, grade ≥3 |  | treatment-related adverse events | 0% |
| C[C@H]1CN(C(=O)CC#N)[C@]12CCN(c1ncnc3[nH]ccc13)C2 |  | healthy adults, plasma | oral, 12 mg single dose, day 1, geometric mean |  | Cmax | 99.3 ng/mL |
| Cn1cc([C@@H]2COC[C@]3(CC[C@H](c4ccccc4)CC3)N2)cn1 | shake-flask, LC-HRMS | aqueous buffer | 16 h, pH 6.8 |  | solubility | > 750 µM |
| O=C(Nc1nc2cccc(-c3ccc(CN4CCS(=O)(=O)CC4)cc3)n2n1)C1CC1 | measured: ear and labyrinth disorders | human rheumatoid arthritis patients | oral, 200 mg once daily, 4 weeks, regardless of relatedness |  | treatment-emergent adverse events | 0% |
| Cc1ccc(NS(=O)(=O)c2cc(C(=O)Nc3ccccc3C(=O)N3CCOCC3)ccc2Cl)c(C)c1 |  | aqueous buffer | pH 7.4 |  | solubility | < 3.77 µg/mL |
| O=C(O)CCC(=O)O.[2H]C([2H])([2H])Oc1cc(C)c2[nH]ccc2c1CN1CC[C@@H](C2CC2)C[C@H]1c1ccc(C(=O)O)cc1 | multiple ascending dose | healthy Chinese subjects | 125 mg twice daily |  | subjects with increased creatinine TEAE | 12.5% |
| NCCONC(=O)[C@@H]1CC[C@@H]2CN1C(=O)N2OS(=O)(=O)O |  | human, plasma | intravenous infusion, 1 g multiple doses, day 9, phase I |  | elimination rate constant | 7.28e-05 s⁻¹ |
| Cc1cc(OCC(=O)OCCN)cc(C)c1Cc1ccc(O)c(C(C)C)c1.Cl | LC-MS/MS, measured: liberated sobetirome | mouse, brain and serum | intraperitoneal, 1.5 µmol/kg, 30 min | relative to: equimolar sobetirome injection | brain/serum sobetirome ratio | increased |
| NC[C@@]1(CC(=O)O)[C@@H]2CC[C@H]3C[C@@H]2[C@@H]1C3 |  | human, severe renal impairment, plasma | dose not given | relative to: normal renal function | unbound AUC(0-t) increase | 276% |
| O=C(N[C@H](Cc1c[nH]c2ccccc12)C(=O)Nc1ccncc1)c1ccc(-c2cc(C(F)(F)F)ccc2F)cc1F |  | Swiss Webster mouse, female, muscle | oral, 50 mg/kg, 2 h, 20% HPβCD vehicle |  | concentration | 310 nM |
| Cc1cc(Nc2ncnc3ccc(NC4=NC(C)(C)CO4)cc23)ccc1Oc1ccn2ncnc2c1 | measured: Pruritus | healthy volunteers | oral, dose not given, grade 1-2 |  | drug-related adverse events | 7.7% |
| Cc1ccc([C@H]2N[C@@H](c3ccc(C(C)(C)C)cc3)CO[C@@H]2C)cn1 | shake-flask, LC-HRMS | aqueous buffer | 16 h, pH 6.8 |  | solubility | < 4 µM |
| Cc1cc(NC2CCN(C(=O)OC3CCN(C(=O)/C=C/CN(C)C)C3)CC2)n2ncc(C(C)C)c2n1 (stereo not shown) | CTCAE v4.0, measured: Vomiting | patients with advanced solid tumours | oral, dose not given, all schedules, grade 3 or higher |  | patients with TEAE | 2% |
| Cc1nc(C)c(-c2ccnc(Nc3ccc(N(C)C)c([N+](=O)[O-])c3)n2)s1 |  | aqueous buffer | pH 7.4 |  | solubility | < 1.32 µg/mL |
| CCn1cc(C(=O)N2CCOCC2)c(=O)c2cc(NC3Cc4ccccc4C3)cnc21 |  | human, GAD, PTSD or social anxiety disorder | dose not given, TEAE Diarrhea, pooled phase trials |  | patients with adverse event | 4.4% |

Excerpt of the above:
| SMILES | test | test system | conditions | scale | measurement | result |
| --- | --- | --- | --- | --- | --- | --- |
| COc1cc(Nc2ncc3c(n2)-c2ccc(Cl)cc2C(c2c(F)cccc2OC)=NC3)ccc1C(=O)O |  | cancer patients | oral, dose not given, all grades any attribution, with: pembrolizumab |  | patients with abdominal pain | 13% |
| COc1cc2nccc(Oc3ccc(NC(=O)c4cc5c(n(-c6ccccc6)c4=O)CCCC5=O)nc3)c2cc1OC |  | patients with relapsed/refractory AML | oral, 6 mg once daily |  | drug-related TEAEs leading to discontinuation | 0% |
| CCN1CCN(Cc2ccc(NC(=O)c3ccc(C)c(NC(=O)c4cncc(-c5cccs5)c4)c3)cc2C(F)(F)F)CC1 |  | C57BL/6 mice, epithelial lining fluid | intraperitoneal, 30 mg/kg |  | apparent clearance | 51.3 mL/min/kg |
| CCn1c(=O)c(-c2cc(NC(=O)Nc3ccccc3)c(F)cc2Br)cc2cnc(NC)cc21 | measured: nervous system disorders | healthy human, matched to severe hepatic impairment | oral, 50 mg single dose |  | participants with drug-related TEAE | 0% |
